Experimental data of several laboratories.
Protocols differ between the studies behind these lines. Numbers after ± are the reported error. Converted amounts (≈) assume the structure as drawn.
Chain of UniProt Q96SB4 (whole entry, looked up): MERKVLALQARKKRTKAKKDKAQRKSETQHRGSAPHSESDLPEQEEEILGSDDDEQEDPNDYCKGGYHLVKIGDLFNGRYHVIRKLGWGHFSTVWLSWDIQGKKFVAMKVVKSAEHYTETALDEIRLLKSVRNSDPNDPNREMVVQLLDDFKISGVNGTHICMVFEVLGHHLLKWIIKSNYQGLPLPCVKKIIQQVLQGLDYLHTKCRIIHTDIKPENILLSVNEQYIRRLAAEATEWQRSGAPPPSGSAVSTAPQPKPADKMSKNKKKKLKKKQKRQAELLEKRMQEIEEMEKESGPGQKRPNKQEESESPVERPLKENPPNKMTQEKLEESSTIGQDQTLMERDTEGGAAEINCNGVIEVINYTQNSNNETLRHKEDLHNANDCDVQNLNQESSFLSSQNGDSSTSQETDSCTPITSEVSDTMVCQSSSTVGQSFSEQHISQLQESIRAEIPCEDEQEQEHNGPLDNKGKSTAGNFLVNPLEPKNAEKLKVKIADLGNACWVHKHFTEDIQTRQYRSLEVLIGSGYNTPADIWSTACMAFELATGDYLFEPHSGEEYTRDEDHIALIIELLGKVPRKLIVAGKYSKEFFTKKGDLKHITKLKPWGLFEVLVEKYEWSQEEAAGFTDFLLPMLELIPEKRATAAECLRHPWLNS

| SMILES | tested on | assay | test system | setting | measurement | result |
| --- | --- | --- | --- | --- | --- | --- |
| O=C(NCc1ccccc1)c1cn(Cc2ccc(C(F)(F)F)cc2)c2ccc(Oc3ccccc3)cc2c1=O | T47D |  |  | 72 h, 10% FBS | CC50 | 77 ± 12.2 µM |
| COc1cc(/C=N/NC(=S)NN=Cc2scnc2C)ccc1Oc1ccnc2cc(Cl)ccc12 | human lysosomal acid alpha-glucosidase | inhibitor |  | with: pNPG substrate | IC50 | 9.12 ± 0.28 µg/mL (≈ 17.8 µM) |
| O=C(NCc1ccc(Cl)cc1)c1cn(Cc2ccc(Cl)cc2)c2ccc(Oc3ccccc3)cc2c1=O | MCF10 |  |  | 72 h | CC50 | 12.4 ± 5.54 µM |
| O=C(Nc1cc(-c2ccc(Cl)cc2)[nH]n1)C1CCCCC1 | SRPK1 (Homo sapiens, UniProt Q96SB4) | enzyme activity, Dundee kinase panel |  | 10 µM | remaining activity | 75% |
| O=C(NCc1ccc(C(F)(F)F)cc1)c1cn(Cc2ccc(F)cc2)c2ccc(Oc3ccccc3)cc2c1=O | MCF10 |  |  | 72 h | CC50 | 28.6 ± 1.58 µM |
| COc1cc(/C=N/NC(=S)NN=Cc2ccncc2)ccc1Oc1ccnc2cc(Cl)ccc12 | human lysosomal acid alpha-glucosidase | inhibitor |  | with: pNPG substrate | IC50 | 11.7 ± 0.12 µg/mL (≈ 23.7 µM) |
| O=C(NCc1ccc(O)cc1)c1cn(Cc2ccc(F)cc2)c2ccc(Oc3ccccc3)cc2c1=O | MCF10 |  |  | 72 h | CC50 | 24.7 ± 2.9 µM |
| COCCOc1cnc2ccn([C@H](C)c3nnc4c(F)cc(-c5cnn(C)c5)cn34)c(=O)c2c1 |  |  | patients, plasma | oral, 25 mg once daily, day 1 | half-life | 6 h |

Excerpt of the above:
| SMILES | tested on | assay | test system | setting | measurement | result |
| --- | --- | --- | --- | --- | --- | --- |
| O=C(NCc1ccc(C(F)(F)F)cc1)c1cn(Cc2ccc(F)cc2)c2ccc(Oc3ccccc3)cc2c1=O | MCF10 |  |  | 72 h | CC50 | 28.6 ± 1.58 µM |
